Experimental data pooled from the literature.
Each numbered part is a random draw from the data of one study; scales do not carry over between parts. Positions count from the first letter of the parent shown.

Block 1
Target: Phosphate system positive regulatory protein PHO4, full length, GST-tagged (PHO4, Saccharomyces cerevisiae, UniProt P07270, residues 1-312)
Method: competition protein-binding microarray
Form: double-stranded DNA, one strand shown
Medium: in vitro
Concentration: 2 µM
Notes: whole 60-bp probe, lowest competitor level
Added: Cbf1 competitor, 0.05 µM
Direction: higher = stronger binding
Measurement: fluorescence intensity
Residues (chain): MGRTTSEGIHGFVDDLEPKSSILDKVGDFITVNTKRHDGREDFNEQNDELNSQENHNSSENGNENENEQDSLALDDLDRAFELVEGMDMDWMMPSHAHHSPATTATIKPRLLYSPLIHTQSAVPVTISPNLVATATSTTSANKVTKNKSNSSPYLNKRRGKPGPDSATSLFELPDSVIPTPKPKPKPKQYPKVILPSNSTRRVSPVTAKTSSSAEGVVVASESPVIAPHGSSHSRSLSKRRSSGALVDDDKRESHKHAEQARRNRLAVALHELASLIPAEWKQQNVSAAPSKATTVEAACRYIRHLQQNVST
AAAGCGGTAATTTGTCACCCCACTTCACATATCTATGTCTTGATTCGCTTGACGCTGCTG: 3690 a.u.
CATACCCAACCTTTTCACGTGCACTAAGATATTTGTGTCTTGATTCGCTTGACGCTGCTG: 15800 a.u.
GCCATCTGTCGGCCACACTTTGAGCAACAACTACAAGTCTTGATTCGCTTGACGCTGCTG: 4700 a.u.
AATCGTTAACACCGTCACCTGTCATTGCGCAGAACTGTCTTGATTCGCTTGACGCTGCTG: 4510 a.u.
CGTTCACTCATCCATAATTGATAAATTTGCGAAATTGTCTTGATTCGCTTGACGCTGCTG: 3220 a.u.
AAATTACTAAGTTGTCACAGAACTTACCCCGTATGAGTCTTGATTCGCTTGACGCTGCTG: 3160 a.u.
CGGGGTTAAGTTTGGCACGTGGGTGGCTTGCAGCAGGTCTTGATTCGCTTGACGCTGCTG: 18800 a.u.
AAAGCGGTAATTTTTCACGTGTGGTCAAATATCTATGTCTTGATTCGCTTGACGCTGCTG: 13200 a.u.
CTAACGAAGGTTTTTCACGTGCAATACAAGCCAAGTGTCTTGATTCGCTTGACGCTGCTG: 13800 a.u.
CCCGATCCTTCTTACCGCGTGCTTTGTGAAAAGCAAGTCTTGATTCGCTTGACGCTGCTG: 11900 a.u.
GGATTAGACAATGGAGAAGATGGGATGAGACACATTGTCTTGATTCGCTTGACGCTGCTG: 3280 a.u.
GTTACCTAATAACTTCATGTGATATGCTCCCCCTTCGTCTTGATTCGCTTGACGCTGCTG: 5800 a.u.
CTAACGAAGGTTTGTGGCGTGGGTGACAAGCCAAGTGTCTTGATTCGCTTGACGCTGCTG: 6990 a.u.
CGGGGTTAAGTTTGGTTCGTGGGTGGCTTGCAGCAGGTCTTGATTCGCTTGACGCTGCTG: 6020 a.u.
TGCGCAACAACTTTTCACGTGGTCTTATGTCTAGAAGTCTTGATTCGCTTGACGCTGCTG: 11900 a.u.
TGCGCAACAACTTGGTTGGTGGGTGTATGTCTAGAAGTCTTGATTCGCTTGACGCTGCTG: 5060 a.u.
CTTCTGTAAATTTGGCAGGTGGGTGGACGCGCCCCGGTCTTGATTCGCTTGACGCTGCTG: 6100 a.u.
TCCGGGTTATACCATCACGTGATGGTAAATCCAAATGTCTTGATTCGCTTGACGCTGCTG: 14700 a.u.
TGCGCAACAACTTGTCCCGTGGGTGTATGTCTAGAAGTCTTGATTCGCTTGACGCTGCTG: 10000 a.u.

Block 2
Target: Histone acetyltransferase KAT6A, both winged helices, GST fusion (KAT6A, Homo sapiens, UniProt Q92794, residues 1-181)
Method: protein binding microarray
Form: double-stranded DNA, one strand shown
Medium: in vitro
Concentration: not given
Notes: 8-mer, flanks averaged, mean of 2 arrays, mostly near background
Baseline: not given
Direction: higher = stronger binding
Measurement: E-score
Residues (chain): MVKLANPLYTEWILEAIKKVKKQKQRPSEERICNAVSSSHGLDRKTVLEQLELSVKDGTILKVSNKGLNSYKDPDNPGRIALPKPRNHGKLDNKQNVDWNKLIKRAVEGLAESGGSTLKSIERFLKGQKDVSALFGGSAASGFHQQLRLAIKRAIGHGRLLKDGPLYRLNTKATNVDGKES
CCTTTTCA: -0.18
CAAAGACG: 0.0489
CGCATGCA: 0.186
ACTACAGA: -0.0279
CATTCACG: 0.119
ATCAGACG: 0.105
ATTACGGG: 0.137
CCCCTAAC: -0.103
GCTTCACC: 0.0214
GTGTCTTA: -0.125
GCCAGAGA: -0.0761
GAGGGTAC: -0.199
AGCGCGCT: 0.358
AACGGTAT: 0.137
TGATGCCA: -0.0721
CCTAAGCA: -0.163
AACCATGG: -0.0384
GCTCGAGA: 0.0466
ACTTTCTC: -0.109

Block 3
Target: CCNB1, cyclin fold, Cln2 fusion (human)
Method: yeast growth competition, sequencing
Medium: yeast
Notes: strong parent motif
Baseline: not given
Direction: higher = stronger binding
Measurement: normalised enrichment score
Starting sequence: PKN2 docking peptide (human); DSTVTKLDFDLEP
DSTVTKADFDLEP [L7A]: 0.0209
DSTVTKLDFALEP [D10A]: 1.55
ASTVTKLDFDLEP [D1A]: 2.63
DSTVTKLDFDAEP [L11A]: 4.44
DSTVTKLDFDLAP [E12A]: 3.46
DSTATKLDFDLEP [V4A]: 1.22

Block 4
Target: Ras GTPase-activating protein-binding protein 1, RRM domain (G3BP1, Homo sapiens, UniProt Q13283)
Sequence of UniProt Q13283 (whole entry, looked up): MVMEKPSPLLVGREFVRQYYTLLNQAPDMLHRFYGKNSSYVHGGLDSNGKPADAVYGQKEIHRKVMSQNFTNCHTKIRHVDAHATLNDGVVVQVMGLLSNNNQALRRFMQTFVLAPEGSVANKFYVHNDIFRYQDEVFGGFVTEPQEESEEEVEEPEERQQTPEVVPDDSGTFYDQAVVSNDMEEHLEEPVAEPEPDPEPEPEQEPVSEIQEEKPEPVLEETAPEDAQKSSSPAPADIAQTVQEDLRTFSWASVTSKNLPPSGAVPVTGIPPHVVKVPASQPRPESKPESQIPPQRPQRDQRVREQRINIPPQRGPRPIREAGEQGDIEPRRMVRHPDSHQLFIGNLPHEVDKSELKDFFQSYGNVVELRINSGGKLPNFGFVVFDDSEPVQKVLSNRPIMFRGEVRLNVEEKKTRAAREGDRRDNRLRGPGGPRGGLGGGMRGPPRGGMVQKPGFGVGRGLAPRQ
Method: RNA Bind-n-Seq
Form: RNA
Medium: in vitro
Concentration: 1 µM
Notes: whole 134-nt RNA, ends assumed
Added: 150 mM KCl
Baseline: input library
Direction: higher = stronger binding
Measurement: log2 enrichment
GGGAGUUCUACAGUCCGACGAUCUAACUUUAGAGGAGGAUCUGAUGGAUAUGGCAGUGGACGUGGAUUUGGGGAUGGCUAUAAUCGGUAUGGAGGAGGACCUGGAGGUGGCAAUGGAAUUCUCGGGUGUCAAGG: -0.236
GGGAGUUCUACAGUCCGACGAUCGUGCUACACAUCGUAUGUACCGAAUCGGGGAAAAAAAGGGGAAAAAAAGGGGAAAAAAAGGGGAAAGUAUUAUGUUACGCCGUUCGGAUCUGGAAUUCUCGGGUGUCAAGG: 1.16
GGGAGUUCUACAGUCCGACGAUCAAGUCCUGUGCUACACAUCGUAUGUACCGAAUCGGGAAAAGGAAAAGGGAAAAGGGAAAGUAUUAUGUUACGCCGUUCGGAUCUGCACUUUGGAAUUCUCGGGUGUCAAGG: -0.0453
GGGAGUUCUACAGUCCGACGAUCGGUAAACGCCCUGCAGAAGAUAUGGAAGAGGAACAAGCAUUUAAAAGAUCUAGAAACACUGAUGAGAUGGUUGAAUUACGCAUUCUGCUUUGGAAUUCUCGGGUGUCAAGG: 0.0265
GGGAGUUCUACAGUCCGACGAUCAAGUCCUGUGCUACACAUCGUAUGUACCGAAUCGGGAAAGGGGAAAGGGAAAGGGGAAAGUAUUAUGUUACGCCGUUCGGAUCUGCACUUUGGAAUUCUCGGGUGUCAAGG: 0.613
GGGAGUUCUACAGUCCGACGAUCAGUCCUGUGCUACACAUCGUAUGUACCGAAUCGGGGCCCCGGGCCCCGGGGCCCCGGAAAGUAUUAUGUUACGCCGUUCGGAUCUGCACUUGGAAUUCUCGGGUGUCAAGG: 0.188
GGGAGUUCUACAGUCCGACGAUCUCCUGUGCUACACAUCGUAUGUACCGAAUCGGGGAAAAAGGGGUGGGGUUUUUUUGGGGAAAGUAUUAUGUUACGCCGUUCGGAUCUGCAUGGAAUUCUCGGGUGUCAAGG: 0.654
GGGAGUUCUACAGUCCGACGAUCCAAGUCCUGUGCUACACAUCGUAUGUACCGAAUCGGGAAAGGGUUUUUGGGAGGGAAAGUAUUAUGUUACGCCGUUCGGAUCUGCACUUCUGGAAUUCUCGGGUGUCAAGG: 0.806
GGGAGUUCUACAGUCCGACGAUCGACAGACAACACGCACCCACACAGACACAGAGGGAAGGGGUUGGGAUGGGGACAGGGUGCACAGCAGGGCGGGGUAGGACCCCAGCCCCUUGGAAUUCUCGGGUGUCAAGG: -0.00398

Block 5
Target: ABI1, truncated, D143A, DHFR fusion (Arabidopsis thaliana)
Method: DHFR PCA, deep sequencing
Medium: yeast
Notes: methotrexate growth selection, single substitutions
Added: (+)-ABA 2500 µM
Baseline: wild-type fitted maximum
Direction: higher = stronger binding
Measurement: relative binding score
Starting sequence: PYL1, truncated, DHFR fusion (Arabidopsis thaliana); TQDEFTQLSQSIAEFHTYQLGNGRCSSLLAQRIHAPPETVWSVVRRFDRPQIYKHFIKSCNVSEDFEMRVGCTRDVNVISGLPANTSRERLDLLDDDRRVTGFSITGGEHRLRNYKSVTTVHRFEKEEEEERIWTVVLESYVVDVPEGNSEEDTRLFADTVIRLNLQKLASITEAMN; partner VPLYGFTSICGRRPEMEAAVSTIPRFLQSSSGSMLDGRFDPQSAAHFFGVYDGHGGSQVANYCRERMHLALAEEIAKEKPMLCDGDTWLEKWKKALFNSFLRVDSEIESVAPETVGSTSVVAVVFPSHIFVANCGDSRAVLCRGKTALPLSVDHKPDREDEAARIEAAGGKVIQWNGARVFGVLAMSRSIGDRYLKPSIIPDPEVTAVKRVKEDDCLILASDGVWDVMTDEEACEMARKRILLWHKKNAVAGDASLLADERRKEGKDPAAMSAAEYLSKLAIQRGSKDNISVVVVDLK
G71A: 80.3%
Y53M: 82.7%
G107D: 106%
R132F: 106%
C72G: 92.5%
F124S: 102%
Y18D: 89.4%
S59I: 87.2%
D144I: 77.5%
V137P: -15.4%
I162E: 13%
I57C: 88.6%
I12C: 91%
D65G: 97.2%
S80H: 80.3%
K58M: 94%
S140K: 58.1%
Y18N: 107%
A13S: 96.7%
P50R: -4.06%
D75P: 25.8%
L91T: -0.0714%

For quick reference, copied from above (block 5):
I57C: 88.6%
Y18N: 107%
I12C: 91%
P50R: -4.06%
G107D: 106%
S140K: 58.1%
C72G: 92.5%
I162E: 13%
K58M: 94%
